Experimental data gathered from unrelated publications.
Numbered parts are unrelated; each lists some results of a single study. Changes are numbered by the printed parent chain.

Study 1 — technique: DHFR PCA, deep sequencing; sample: yeast; added: (+)-ABA 710 µM; relative to: wild-type fitted maximum; reading: higher = stronger binding
Target: ABI1, truncated, D143A, DHFR fusion (Arabidopsis thaliana)
Notes: methotrexate growth selection, single substitutions
Starting sequence: PYL1, truncated, DHFR fusion (Arabidopsis thaliana); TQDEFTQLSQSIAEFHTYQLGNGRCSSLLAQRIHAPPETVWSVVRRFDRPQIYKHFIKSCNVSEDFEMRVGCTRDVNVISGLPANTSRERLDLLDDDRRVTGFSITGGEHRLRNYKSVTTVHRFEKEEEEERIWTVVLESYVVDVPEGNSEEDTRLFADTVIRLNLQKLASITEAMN; partner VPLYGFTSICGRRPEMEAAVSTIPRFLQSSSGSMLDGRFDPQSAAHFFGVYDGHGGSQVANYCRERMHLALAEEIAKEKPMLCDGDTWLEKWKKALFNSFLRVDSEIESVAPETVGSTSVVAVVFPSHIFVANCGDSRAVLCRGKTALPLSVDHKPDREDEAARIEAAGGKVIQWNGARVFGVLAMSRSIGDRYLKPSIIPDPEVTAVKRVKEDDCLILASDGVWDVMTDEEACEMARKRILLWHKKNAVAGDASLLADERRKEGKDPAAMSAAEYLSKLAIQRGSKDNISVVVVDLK
`E89P`: “relative binding score” -14.1%.
`F66L` — result for “relative binding score”: 94.3%.
Under “relative binding score”, `G102Y` is recorded as -2.09%.
`E151F`: “relative binding score” 95.9%.
For `G71I`, “relative binding score” read 1.68%.
`E131K` — result for “relative binding score”: 114%.
Under “relative binding score”, `H34Y` is recorded as 100%.
`N114K`: “relative binding score” 88.2%.
Under “relative binding score”, `R132S` is recorded as 113%.
`G23A`: “relative binding score” 98.7%.
Under “relative binding score”, `Q7P` is recorded as 97.9%.
`D97A`: “relative binding score” 117%.
For `S171P`, “relative binding score” read 23.2%.
`E89R` — result for “relative binding score”: 7.63%.
Under “relative binding score”, `D65R` is recorded as 98.9%.
`L166N`: “relative binding score” 41%.
For `N85R`, “relative binding score” read 103%.
`G102N` — result for “relative binding score”: 18.1%.
Under “relative binding score”, `I162L` is recorded as 84.5%.

Study 2 — target: CCNB1, cyclin fold, Cln2 fusion (human); technique: yeast growth competition, sequencing; sample: yeast; notes: weak parent motif; relative to: not given; reading: higher = stronger binding
Starting sequence: CDC6 docking peptide (human); TLKGRRLVFDNQL
For `TLKGGRLVFDNQL [R5G]`, “normalised enrichment score” read -0.0422.
`TLKFRRLVFDNQL [G4F]` — result for “normalised enrichment score”: 0.544.
`TLKRRRLVFDNQL [G4R]`: “normalised enrichment score” 0.463.
For `TLKGRRLVFDSQL [N11S]`, “normalised enrichment score” read 0.242.
`TLKGRRLSFDNQL [V8S]` — result for “normalised enrichment score”: 0.8.
For `TLKGRRLVFDNSL [Q12S]`, “normalised enrichment score” read -0.0331.
`TLKGRRLVFDNQQ [L13Q]` — result for “normalised enrichment score”: 0.683.
For `NLKGRRLVFDNQL [T1N]`, “normalised enrichment score” read -0.396.
`TPKGRRLVFDNQL [L2P]`: “normalised enrichment score” 0.0859.
For `TLKGRRLVFDNLL [Q12L]`, “normalised enrichment score” read 1.1.
Under “normalised enrichment score”, `TLKGRRGVFDNQL [L7G]` is recorded as 0.524.
`TLNGRRLVFDNQL [K3N]` — result for “normalised enrichment score”: -0.0662.
Under “normalised enrichment score”, `TLKGRRLVFDAQL [N11A]` is recorded as 0.772.
`CLKGRRLVFDNQL [T1C]`: “normalised enrichment score” -0.219.
`TLKGRRLKFDNQL [V8K]`: “normalised enrichment score” 0.525.
For `TLKGRRWVFDNQL [L7W]`, “normalised enrichment score” read 0.045.
Under “normalised enrichment score”, `TWKGRRLVFDNQL [L2W]` is recorded as -0.0568.

Study 3 — technique: protein-binding microarray; form: double-stranded DNA, one strand shown; sample: in vitro; concentration: 2200 nM top; notes: 60-bp whole probe; added: salmon DNA 0.4 mg/ml; relative to: random background probes; reading: higher = stronger binding; all sequences stand within: GCCTAGCAC … GTCTTGATTCGCTTGACGCTGCTG
Target: Interferon regulatory factor 7, full length, phosphomimetic (IRF7, Homo sapiens, UniProt Q92985, residues 1-503, S471D/S472D/S475D/S476D/S477D/S483D/S484D/S487D)
Sequence of UniProt Q92985 (whole entry, unmodified, looked up): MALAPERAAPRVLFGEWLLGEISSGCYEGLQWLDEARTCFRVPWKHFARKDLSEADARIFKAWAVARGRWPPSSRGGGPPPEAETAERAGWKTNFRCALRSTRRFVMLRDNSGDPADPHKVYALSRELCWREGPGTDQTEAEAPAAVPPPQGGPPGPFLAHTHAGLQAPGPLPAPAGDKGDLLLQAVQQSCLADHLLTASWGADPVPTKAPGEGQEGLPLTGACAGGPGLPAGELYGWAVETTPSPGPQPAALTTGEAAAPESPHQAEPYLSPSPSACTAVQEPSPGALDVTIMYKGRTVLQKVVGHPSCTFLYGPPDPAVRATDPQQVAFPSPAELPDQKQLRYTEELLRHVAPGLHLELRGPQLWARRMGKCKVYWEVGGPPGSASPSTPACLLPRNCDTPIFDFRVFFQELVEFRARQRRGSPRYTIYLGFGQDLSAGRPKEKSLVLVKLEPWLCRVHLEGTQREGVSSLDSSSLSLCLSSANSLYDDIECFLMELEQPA
Under “fitted relative affinity”, `TTAGGTTTCGGTCTCGGTTTGTGCTAG` is recorded as 7.55 z-score.
For `GACGTACTGGGTATCGGGACGTGCTAG`, “fitted relative affinity” read -0.0559 z-score.
`TTAGGTTTCGGTTCCAGTTAGTGCTAG` — result for “fitted relative affinity”: 10.2 z-score.
For `TTAGATTTCGGGTATCGTTTAGTGCTA`, “fitted relative affinity” read 3.27 z-score.
Under “fitted relative affinity”, `TCACATTTTGTTTTTCAACTGTGCTAG` is recorded as 2.66 z-score.
`GACGAACTGGACACTGGGGACGTGCTA` — result for “fitted relative affinity”: -0.36 z-score.
`CTAGGACTGGGACTGGGTTAGTGCTAG`: “fitted relative affinity” -1.19 z-score.
`TTAGAACTGAGTATCGATTAGTGCTAG`: “fitted relative affinity” -0.134 z-score.
`TTTTTTTTCTTTAAAAGTGAGTGCTAG`: “fitted relative affinity” 1.29 z-score.
`GACGTTTTCAGTCTCGAGACGTGCTAG`: “fitted relative affinity” 2.13 z-score.
`CACGGTCTCCTACTGCTGACGTGCTAG`: “fitted relative affinity” 0.708 z-score.
For `CTGATTTCCACTTTCTTAATGTGCTAG`, “fitted relative affinity” read 4.15 z-score.
Under “fitted relative affinity”, `TTAGGTATCGGGTATCGATTAGTGCTA` is recorded as 0.321 z-score.
Under “fitted relative affinity”, `TTAGGTTTCGGAGTGGGTTAGTGCTAG` is recorded as 2.54 z-score.
`GACGAACTGAGACTGGACACGTGCTAG`: “fitted relative affinity” -0.0794 z-score.
For `GACCGTATCGACACTGGGGACGTGCTA`, “fitted relative affinity” read 0.255 z-score.
`TTAGGACTGTACTTTCGGTTAGTGCTA` — result for “fitted relative affinity”: 8.22 z-score.
Under “fitted relative affinity”, `TTAGGTTTCGTTATCCTTTAGTGCTAG` is recorded as 7.34 z-score.
`GACGAACTGGGGACTGCAGACGTGCTA` — result for “fitted relative affinity”: -0.0941 z-score.

Study 4 — target: TEF, bZIP domain (human); technique: DHFR protein complementation; sample: yeast; relative to: wild-type JUN-FOS pair; reading: higher = stronger binding
Notes: single substitutions, most at no-binding floor
Starting sequence: JUN, bZIP domain (human); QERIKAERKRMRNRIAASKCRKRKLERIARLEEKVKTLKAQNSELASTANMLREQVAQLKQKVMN; partner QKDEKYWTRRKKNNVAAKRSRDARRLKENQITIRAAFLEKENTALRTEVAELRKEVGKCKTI
`K39M` has a binding fitness of -1.44 natural log.
`I28Y` gave a binding fitness of -0.939 natural log.
`I28R` has a binding fitness of -1.39 natural log.
For `L59P`, the binding fitness was -1.48 natural log.
The binding fitness of `L52G` is reported as -1.51 natural log.
For `L38S`, the binding fitness was -1.57 natural log.
`A46I` gave a binding fitness of -1.39 natural log.
The binding fitness of `E44C` is reported as -1.57 natural log.
The binding fitness of `N42V` is reported as -1.42 natural log.
With `E54L` the binding fitness was -1.48 natural log.
The binding fitness of `S47F` is reported as -1.48 natural log.
`L52C` gave a binding fitness of -1.5 natural log.
With `A46Y` the binding fitness was -1.41 natural log.
For `E32G`, the binding fitness was -1.52 natural log.
`L52R` gave a binding fitness of -1.48 natural log.
`L45K` has a binding fitness of -1.59 natural log.
`E54K` has a binding fitness of -1.54 natural log.
The binding fitness of `V35W` is reported as -1.53 natural log.
For `T48F`, the binding fitness was -1.15 natural log.
With `I28L` the binding fitness was -1.34 natural log.
With `L38K` the binding fitness was -1.44 natural log.
`S43V` has a binding fitness of -1.4 natural log.
For `K34S`, the binding fitness was -1.22 natural log.
For `Q41A`, the binding fitness was -1.43 natural log.
With `E32F` the binding fitness was -1.34 natural log.

Single results of other studies — technique: cross-linking MS; sample: cell fractions
`WDHD1 (Homo sapiens, UniProt O75717)` — result for cross-linked residues: “K1108 to D162” (HSPA6 (Homo sapiens, UniProt P17066); added: DMTMM).
`CCT5 (Homo sapiens, UniProt P48643)`: cross-linked residues “D67 to K82” (CCT2 (Homo sapiens, UniProt P78371); added: DMTMM).
`CYCS (Homo sapiens, UniProt P99999)`: cross-linked residues “K40 to K262” (PHB2 (Homo sapiens, UniProt Q99623); added: DSSO).
Under cross-linked residues, `SMARCA5 (Homo sapiens, UniProt O60264)` is recorded as “K943 to K645” (BAZ1A (Homo sapiens, UniProt Q9NRL2); added: DSSO).

A few entries again (study 3):
`CACGGTCTCCTACTGCTGACGTGCTAG`: “fitted relative affinity” 0.708 z-score.
For `GACCGTATCGACACTGGGGACGTGCTA`, “fitted relative affinity” read 0.255 z-score.
`TTTTTTTTCTTTAAAAGTGAGTGCTAG`: “fitted relative affinity” 1.29 z-score.
For `GACGTACTGGGTATCGGGACGTGCTAG`, “fitted relative affinity” read -0.0559 z-score.
`GACGAACTGGACACTGGGGACGTGCTA` — result for “fitted relative affinity”: -0.36 z-score.
`TTAGGTTTCGGTTCCAGTTAGTGCTAG` — result for “fitted relative affinity”: 10.2 z-score.
`CTAGGACTGGGACTGGGTTAGTGCTAG`: “fitted relative affinity” -1.19 z-score.
`TTAGGACTGTACTTTCGGTTAGTGCTA` — result for “fitted relative affinity”: 8.22 z-score.
`TTAGAACTGAGTATCGATTAGTGCTAG`: “fitted relative affinity” -0.134 z-score.
Under “fitted relative affinity”, `TTAGGTATCGGGTATCGATTAGTGCTA` is recorded as 0.321 z-score.
`GACGAACTGGGGACTGCAGACGTGCTA` — result for “fitted relative affinity”: -0.0941 z-score.
For `CTGATTTCCACTTTCTTAATGTGCTAG`, “fitted relative affinity” read 4.15 z-score.
For `TTAGATTTCGGGTATCGTTTAGTGCTA`, “fitted relative affinity” read 3.27 z-score.
